Experimental data of several laboratories.
Each numbered part is a random draw from the data of one study; scales do not carry over between parts.

Block 1
Target: Protein C-ets-1 (ETS1, Homo sapiens, UniProt P14921, residues 1-441, full length assumed)
UniProt P14921, sequence (whole entry, looked up): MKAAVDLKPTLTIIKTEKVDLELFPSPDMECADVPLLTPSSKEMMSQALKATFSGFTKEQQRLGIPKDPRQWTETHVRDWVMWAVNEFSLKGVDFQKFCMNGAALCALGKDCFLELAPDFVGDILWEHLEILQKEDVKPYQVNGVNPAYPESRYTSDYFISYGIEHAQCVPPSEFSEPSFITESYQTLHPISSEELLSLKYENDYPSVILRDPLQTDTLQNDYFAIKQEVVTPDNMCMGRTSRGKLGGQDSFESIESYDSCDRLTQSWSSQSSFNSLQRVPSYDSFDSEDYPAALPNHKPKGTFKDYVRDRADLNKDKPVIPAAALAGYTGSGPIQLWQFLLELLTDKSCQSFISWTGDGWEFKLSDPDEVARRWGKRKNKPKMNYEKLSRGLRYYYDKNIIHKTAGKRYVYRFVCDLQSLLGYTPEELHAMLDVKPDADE
Method: protein-binding microarray
Molecule type: double-stranded DNA, one strand shown
Medium: in vitro
Tested at: not given
Notes: k-mer, scored over probes, only values ≥0.25
Reading: higher = stronger binding
Quantity: E-score
CATCCCGG: 0.374
TGGCGGAA: 0.448
AAGGAGGA: 0.322
CACCCCGC: 0.252
CCCCGGTA: 0.256
AGCGGACG: 0.399

Block 2
Cell line: HEK-293T
Observed: pseudovirus infection
Method: FDA-approved drug library screen
Organism: VSV pseudotyped with SARS-CoV-2 spike
Tested at: 10 µM
Time: 16 h
Relative to: vehicle-treated
Quantity: GFP-positive cells
CC(=O)N[C@@H](CS)C(=O)O: 68.8%
CC[C@@H](CO)NCCN[C@@H](CC)CO: 82.5%
CCCSc1ccc2nc(NC(=O)OC)[nH]c2c1: 22.3%
CC(=O)N(CC(O)CO)c1c(I)c(C(=O)NCC(O)CO)c(I)c(C(=O)NCC(O)CO)c1I (stereo not shown): 76%

Block 3
Target: Sal-like protein 4, full length isoform B (SALL4, Homo sapiens, UniProt Q9UJQ4-2, residues 1-616)
Method: universal PBM
Molecule type: double-stranded DNA, one strand shown
Medium: in vitro
Tested at: not given
Notes: 8-mer, flanks averaged, mean of replicates
Reading: higher = stronger binding
Quantity: E-score
GGATTGCA: 0.0263
AGACTGGG: -0.182
ACCTCGGA: -0.0884
CTCCCCGC: -0.18
GTCTTTAA: 0.212
CGAGCAGC: -0.155
GACTCCGA: -0.261
CGCAGCCC: -0.267

Block 4
Target: Replicase polyprotein 1ab, main protease (rep, Severe acute respiratory syndrome coronavirus 2, UniProt P0DTD1)
Observed: enzyme activity
Action: inhibitor
Tested at: 20 µM
Notes: hit confirmation, with DTT
Quantity: inhibition
CCCC[C@H](NC(=O)[C@@H]1[C@@H]2[C@H](CN1C(=O)[C@@H](NC(=O)NC1(CS(=O)(=O)C(C)(C)C)CCCCC1)C(C)(C)C)C2(C)C)C(=O)C(=O)NC1CC1: 58.9%
C/N=c1/nc(-c2ccccc2)n(-c2ccccc2)s1: -11.6%
C/C=C1/[C@H](O[C@@H]2O[C@H](CO)[C@@H](O)[C@H](O)[C@H]2O)OC=C(C(=O)OC)[C@H]1CC(=O)OCCc1ccc(O)c(O)c1: -15.3%
O=C(C=Cc1ccc(O)c2c1C(C(=O)OC(Cc1ccc(O)c(O)c1)C(=O)O)C(c1ccc(O)c(O)c1)O2)OC(Cc1ccc(O)c(O)c1)C(=O)O (stereo not shown): -1.8%

Block 5
Target: Replicase polyprotein 1ab, polymerase (rep, Severe acute respiratory syndrome coronavirus 2, UniProt P0DTD1)
Observed: enzyme activity
Action: inhibitor
Tested at: 20 µM
Quantity: inhibition
Cc1ccccc1/N=N/c1ccc(/N=N/c2c(O)ccc3ccccc23)c(C)c1: 2.59%
COc1cc(N)c(Cl)cc1C(=O)NC1CCN(Cc2ccccc2)CC1: 0.08%
C=C(C)[C@@H]1CCC(C)=C[C@H]1c1c(OC)cc(C)cc1OC: -4.54%
CN(C)C(=O)CCSC(SCCC(=O)O)c1cccc(/C=C/c2ccc3ccc(Cl)cc3n2)c1 (stereo not shown): -0.09%
Cc1ccc2c(c1)c1c(n2CCc2ccc(C)nc2)CCN(C)C1: 15.9%
O=C(O)C1CSCN1 (stereo not shown): 3.36%
CC(=O)Nc1ccc(O)cc1: -16.2%
CN1C(=O)CC(c2ccccc2)C1=O (stereo not shown): -0.71%
Cc1cn([C@@H]2C[C@@H](O)[C@H](CO)O2)c(=O)[nH]c1=O: 3.73%
O=C(O)c1ccc2nc(-c3cc(Cl)cc(Cl)c3)oc2c1: -4.59%
CN1C(=O)COc2c(C(=O)NC3CN4CCC3CC4)cc(Cl)cc21 (stereo not shown): -1%
COc1cc([C@H]2Oc3ccc([C@H]4Oc5cc(O)cc(O)c5C(=O)[C@@H]4O)cc3O[C@@H]2CO)ccc1O: 13.8%
N[C@@H](Cc1c[nH]c2ccccc12)C(=O)O: -0.61%
COc1ccc([C@H]2CNC(=O)C2)cc1OC1CCCC1: -3.82%
COc1ccc(CCN2CCN(CCCc3ccccc3)CC2)cc1OC: -6.95%
COc1cc2c(cc1O)CC[C@@H]1[C@@H]2CC[C@]2(C)[C@@H](O)CC[C@@H]12: -4.66%
Nc1nc2c(ncn2COCCO)c(=O)[nH]1: -6.32%
CC(C)c1c2cc(-c3ccnc(N[C@H]4CC[C@H](NC5CCOCC5)CC4)n3)ccc2nn1C: -4.12%
CN(C)/C=N/c1c(I)cc(I)c(CCC(=O)O)c1I: -0.88%
CC[N+](CC)(CC)CCC(O)(c1ccccc1)C1CCCCC1 (stereo not shown): -3.54%
O=C(OCC(O)CO)c1ccccc1Nc1ccnc2c(C(F)(F)F)cccc12 (stereo not shown): -0.64%
CC(C)(C)Cn1c(N)nc2ccc(-c3[nH]c(C(C)(C)C)nc3-c3ccc(F)cc3)nc21: -8.83%
O=C1NC(O)CCN1[C@@H]1O[C@H](CO)[C@@H](O)[C@H]1O (stereo partly shown): 2.16%
COC(=O)[C@H](CC(C)C)NC(=O)c1ccc(NC[C@@H](N)CS)cc1-c1cccc2ccccc12: -1.97%
Cc1cc(C)c(N(Cc2ccccc2)S(=O)(=O)c2ccc(OCCNC(=O)c3cc4ccccc4o3)cc2)c(C(=O)NO)c1: -1.43%

Block 6
Target: RING finger protein unkempt homolog, zinc fingers 1-6, SBP tag (UNK, Homo sapiens, UniProt Q9C0B0, residues 30-357)
UniProt Q9C0B0, sequence (30-357, looked up): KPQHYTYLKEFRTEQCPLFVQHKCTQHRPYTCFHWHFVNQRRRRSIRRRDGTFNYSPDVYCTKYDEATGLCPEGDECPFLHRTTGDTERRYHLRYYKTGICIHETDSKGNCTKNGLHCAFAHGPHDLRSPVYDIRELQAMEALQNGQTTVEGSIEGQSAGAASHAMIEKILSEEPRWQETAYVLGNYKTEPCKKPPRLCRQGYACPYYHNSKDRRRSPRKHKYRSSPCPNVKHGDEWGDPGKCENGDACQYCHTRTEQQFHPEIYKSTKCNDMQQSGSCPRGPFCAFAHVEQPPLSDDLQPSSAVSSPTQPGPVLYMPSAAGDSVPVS
Method: RNA Bind-n-Seq
Molecule type: RNA
Medium: in vitro
Tested at: 100 nM
Notes: RNA with constant flanks, vertebrate orthologous sites, ends assumed
Relative to: input RNA pool
Reading: higher = stronger binding
Quantity: bound/input enrichment
Constant ends, left off below: GGGAGUUCUACAGUCCGACGAUC … CAACAGAGGAUUGAGCAUCA
GCCCCGGCUCCCAUGAGAGGGAGUGGGGGGAGCUCAGGAUGACCCUCAACUGUUCCAAUCCAGUAUUUUUUUUUCUUUUUUAAAAUUACUGUAUUUAUUAUGACGACGGUGACUCCCCGG: 0.497 ratio
UUGGUUUGGGGUAGAGGGGAGGGAAGGGCAGGAUGGUAUGGAAUCUCUAGCAUAUAUGGGUAGUUAGUUAGGGUACACAGUUAGUUCUAAGUGAGCCUUUGUUAAAAUUUUUUGGGAGGU: 2.26 ratio
AGACACCUCCCCUUAUGACAGGGAUUGUGGGGGGGGCAGGAUGACUCAGCUGUUCCAAUCCAGUAUUUUAUUUUUCUUCUUUGAAAUAAAAACGGACUGUAUUUAUUAUGACGAUGGUGC: 0.707 ratio
GCACUACCUAUACCAAUUUUACAACAUUGAAUGCAAAAUAGUGAAUUUCAUAGUCACAGAGGAAGAUAGCUUUAGGGCACUGUCCCCAUGGGUUUUACUUGUGUAGGUUUUGAAAAUGUA: 0.88 ratio
CUUUUAAUCGACUAUGUCUGUAAAUGUAUAUUGAGAGAAUUUAAGUAUUUAUAAACAGAGUGAUUUAUUUAAGGAAAAGCUUAUCCCUCUUUCAUAUGGUGGUCUGUGUUAAUUCCAUUU: 0.645 ratio

A few entries again (block 3):
GGATTGCA: 0.0263
AGACTGGG: -0.182
ACCTCGGA: -0.0884
CTCCCCGC: -0.18
GTCTTTAA: 0.212
CGAGCAGC: -0.155
GACTCCGA: -0.261
CGCAGCCC: -0.267
